Measurements collected from several papers.
Each numbered part is a random draw from the data of one study; scales do not carry over between parts.
UniProt O43353, sequence (whole entry, looked up): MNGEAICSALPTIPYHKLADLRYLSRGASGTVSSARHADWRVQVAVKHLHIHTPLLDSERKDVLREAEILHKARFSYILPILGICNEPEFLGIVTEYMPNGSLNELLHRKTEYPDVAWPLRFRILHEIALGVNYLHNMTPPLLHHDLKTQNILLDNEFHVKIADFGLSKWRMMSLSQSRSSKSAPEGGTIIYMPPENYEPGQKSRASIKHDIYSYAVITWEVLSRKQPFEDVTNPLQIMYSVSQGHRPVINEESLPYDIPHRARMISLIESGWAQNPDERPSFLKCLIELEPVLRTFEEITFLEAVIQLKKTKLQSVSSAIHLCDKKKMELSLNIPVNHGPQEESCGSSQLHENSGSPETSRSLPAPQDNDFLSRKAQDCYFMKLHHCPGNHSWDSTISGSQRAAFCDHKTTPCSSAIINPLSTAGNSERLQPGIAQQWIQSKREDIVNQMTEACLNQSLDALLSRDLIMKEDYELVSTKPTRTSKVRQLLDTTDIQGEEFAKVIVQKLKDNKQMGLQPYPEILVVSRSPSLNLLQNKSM
UniProt Q9Y4K4, sequence (whole entry, looked up): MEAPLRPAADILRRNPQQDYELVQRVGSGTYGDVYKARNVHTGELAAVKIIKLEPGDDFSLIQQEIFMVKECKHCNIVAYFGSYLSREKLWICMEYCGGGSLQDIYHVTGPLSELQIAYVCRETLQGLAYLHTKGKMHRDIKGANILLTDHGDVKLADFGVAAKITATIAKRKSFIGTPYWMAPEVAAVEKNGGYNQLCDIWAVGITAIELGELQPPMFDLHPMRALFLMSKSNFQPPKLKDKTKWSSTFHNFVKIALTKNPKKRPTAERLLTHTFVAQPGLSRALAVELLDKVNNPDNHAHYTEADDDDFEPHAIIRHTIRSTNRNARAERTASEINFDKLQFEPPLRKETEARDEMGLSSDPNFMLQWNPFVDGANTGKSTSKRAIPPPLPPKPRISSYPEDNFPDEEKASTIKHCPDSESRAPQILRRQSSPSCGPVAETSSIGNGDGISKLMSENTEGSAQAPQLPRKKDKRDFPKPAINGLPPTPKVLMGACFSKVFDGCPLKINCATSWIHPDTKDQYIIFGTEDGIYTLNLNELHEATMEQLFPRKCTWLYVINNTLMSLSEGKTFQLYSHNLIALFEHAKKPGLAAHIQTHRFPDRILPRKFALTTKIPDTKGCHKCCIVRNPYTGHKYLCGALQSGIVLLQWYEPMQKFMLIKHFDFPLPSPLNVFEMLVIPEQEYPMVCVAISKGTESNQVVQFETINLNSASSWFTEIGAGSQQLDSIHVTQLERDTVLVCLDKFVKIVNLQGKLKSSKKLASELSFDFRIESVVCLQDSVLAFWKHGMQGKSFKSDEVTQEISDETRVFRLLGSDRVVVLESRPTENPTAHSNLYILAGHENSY
UniProt Q9BYT3, sequence (whole entry, looked up): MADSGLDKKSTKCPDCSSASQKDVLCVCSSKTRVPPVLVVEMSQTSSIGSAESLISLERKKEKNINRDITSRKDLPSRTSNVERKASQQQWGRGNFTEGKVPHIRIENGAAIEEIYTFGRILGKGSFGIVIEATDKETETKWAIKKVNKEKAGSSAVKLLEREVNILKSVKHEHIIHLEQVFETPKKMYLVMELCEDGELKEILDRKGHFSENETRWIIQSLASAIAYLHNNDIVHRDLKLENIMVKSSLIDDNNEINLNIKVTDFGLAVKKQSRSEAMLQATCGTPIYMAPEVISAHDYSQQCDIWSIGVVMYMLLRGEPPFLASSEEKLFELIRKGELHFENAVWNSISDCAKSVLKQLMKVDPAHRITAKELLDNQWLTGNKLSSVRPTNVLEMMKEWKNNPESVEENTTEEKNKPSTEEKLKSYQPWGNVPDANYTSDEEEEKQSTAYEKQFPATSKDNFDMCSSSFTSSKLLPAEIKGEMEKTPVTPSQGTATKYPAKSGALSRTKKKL
UniProt Q9UKI8, sequence (whole entry, looked up): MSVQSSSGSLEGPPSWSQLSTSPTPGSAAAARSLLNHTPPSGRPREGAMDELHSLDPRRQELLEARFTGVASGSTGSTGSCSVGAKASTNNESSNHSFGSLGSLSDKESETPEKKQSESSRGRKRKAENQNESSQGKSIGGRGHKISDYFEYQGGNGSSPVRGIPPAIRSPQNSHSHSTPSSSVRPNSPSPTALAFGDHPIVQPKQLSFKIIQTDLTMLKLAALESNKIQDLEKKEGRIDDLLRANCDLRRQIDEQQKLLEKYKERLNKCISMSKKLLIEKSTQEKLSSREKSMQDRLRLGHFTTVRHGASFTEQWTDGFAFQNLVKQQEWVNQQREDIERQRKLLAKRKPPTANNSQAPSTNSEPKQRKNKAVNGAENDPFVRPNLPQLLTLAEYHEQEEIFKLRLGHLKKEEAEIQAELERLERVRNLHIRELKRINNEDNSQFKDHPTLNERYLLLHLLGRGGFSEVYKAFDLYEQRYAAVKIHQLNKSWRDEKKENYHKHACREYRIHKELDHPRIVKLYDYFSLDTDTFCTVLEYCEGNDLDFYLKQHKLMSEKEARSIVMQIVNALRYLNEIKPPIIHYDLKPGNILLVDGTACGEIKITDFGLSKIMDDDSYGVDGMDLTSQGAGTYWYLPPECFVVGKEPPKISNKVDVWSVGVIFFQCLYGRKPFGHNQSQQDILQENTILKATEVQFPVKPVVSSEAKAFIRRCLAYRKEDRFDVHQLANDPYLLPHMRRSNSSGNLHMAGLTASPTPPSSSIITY
UniProt P78356, sequence (whole entry, looked up): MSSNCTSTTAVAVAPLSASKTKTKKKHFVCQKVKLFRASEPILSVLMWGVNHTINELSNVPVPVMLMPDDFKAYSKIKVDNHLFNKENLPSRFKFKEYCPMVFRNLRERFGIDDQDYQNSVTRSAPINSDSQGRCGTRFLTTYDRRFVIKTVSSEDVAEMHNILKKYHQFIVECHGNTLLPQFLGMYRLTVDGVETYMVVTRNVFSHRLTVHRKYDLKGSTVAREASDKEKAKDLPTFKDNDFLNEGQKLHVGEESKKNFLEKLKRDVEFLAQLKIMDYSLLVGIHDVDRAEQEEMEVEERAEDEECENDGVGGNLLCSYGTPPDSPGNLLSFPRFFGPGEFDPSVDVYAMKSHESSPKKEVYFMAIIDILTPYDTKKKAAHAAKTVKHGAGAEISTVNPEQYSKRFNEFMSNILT
UniProt Q86UX6, sequence (whole entry, looked up): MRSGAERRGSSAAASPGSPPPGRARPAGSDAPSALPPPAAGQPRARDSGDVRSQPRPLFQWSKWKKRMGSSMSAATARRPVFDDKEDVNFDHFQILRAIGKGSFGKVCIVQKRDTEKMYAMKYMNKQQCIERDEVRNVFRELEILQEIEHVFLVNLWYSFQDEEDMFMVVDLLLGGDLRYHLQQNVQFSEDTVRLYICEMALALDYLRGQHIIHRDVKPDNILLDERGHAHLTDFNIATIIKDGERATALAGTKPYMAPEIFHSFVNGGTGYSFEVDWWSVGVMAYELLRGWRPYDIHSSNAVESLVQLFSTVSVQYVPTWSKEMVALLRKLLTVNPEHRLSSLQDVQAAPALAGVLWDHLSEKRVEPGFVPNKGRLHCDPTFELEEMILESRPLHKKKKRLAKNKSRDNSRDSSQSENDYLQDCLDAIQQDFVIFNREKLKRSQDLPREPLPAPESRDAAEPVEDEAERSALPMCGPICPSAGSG
UniProt P42681, sequence (whole entry, looked up): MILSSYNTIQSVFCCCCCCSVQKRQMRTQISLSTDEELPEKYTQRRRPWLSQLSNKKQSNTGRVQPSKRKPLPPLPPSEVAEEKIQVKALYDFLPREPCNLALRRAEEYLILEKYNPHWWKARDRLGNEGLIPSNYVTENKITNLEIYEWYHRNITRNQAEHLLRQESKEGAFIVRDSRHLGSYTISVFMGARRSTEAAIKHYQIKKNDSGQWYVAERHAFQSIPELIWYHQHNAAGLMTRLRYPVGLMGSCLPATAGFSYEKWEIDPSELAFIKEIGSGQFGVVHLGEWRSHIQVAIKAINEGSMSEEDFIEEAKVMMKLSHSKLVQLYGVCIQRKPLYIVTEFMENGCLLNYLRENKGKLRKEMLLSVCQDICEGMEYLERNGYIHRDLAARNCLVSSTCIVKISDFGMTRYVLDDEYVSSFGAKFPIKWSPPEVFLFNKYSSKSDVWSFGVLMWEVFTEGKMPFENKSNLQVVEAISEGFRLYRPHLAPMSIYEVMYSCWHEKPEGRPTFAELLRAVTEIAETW
UniProt P0C264, sequence (whole entry, looked up): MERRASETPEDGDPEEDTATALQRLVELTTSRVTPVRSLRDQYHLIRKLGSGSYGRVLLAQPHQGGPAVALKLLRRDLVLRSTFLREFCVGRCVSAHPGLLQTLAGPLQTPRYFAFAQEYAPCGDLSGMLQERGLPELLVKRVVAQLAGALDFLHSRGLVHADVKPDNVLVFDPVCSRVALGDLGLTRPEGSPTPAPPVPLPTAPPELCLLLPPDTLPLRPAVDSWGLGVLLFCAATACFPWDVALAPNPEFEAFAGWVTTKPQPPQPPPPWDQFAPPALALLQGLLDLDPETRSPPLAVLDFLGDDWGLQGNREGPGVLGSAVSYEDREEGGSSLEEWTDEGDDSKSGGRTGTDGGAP
UniProt P27361, sequence (whole entry, looked up): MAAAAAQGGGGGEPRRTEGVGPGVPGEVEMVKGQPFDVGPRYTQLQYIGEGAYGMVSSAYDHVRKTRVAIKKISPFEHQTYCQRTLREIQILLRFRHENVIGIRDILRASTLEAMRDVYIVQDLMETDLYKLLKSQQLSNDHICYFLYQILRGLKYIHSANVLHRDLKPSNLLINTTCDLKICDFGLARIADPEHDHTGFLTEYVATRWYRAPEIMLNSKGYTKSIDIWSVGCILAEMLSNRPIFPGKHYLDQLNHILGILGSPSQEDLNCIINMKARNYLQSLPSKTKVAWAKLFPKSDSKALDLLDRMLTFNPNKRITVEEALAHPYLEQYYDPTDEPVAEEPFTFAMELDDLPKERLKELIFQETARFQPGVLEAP

Set 1 — cell line: HaCaT; tested at: 100 µM; time: 18 h; measurement: viability
SMILES = Cc1cc(C#N)cc(C)c1Oc1nc(Nc2ccc(C#N)cc2)nc(N)c1Br; result = 51.2%
SMILES = CCCCC(=O)O[C@]1(C(=O)CO)CC[C@H]2[C@@H]3CCC4=CC(=O)CC[C@]4(C)[C@H]3[C@@H](O)C[C@@]21C; result = 84.5%
SMILES = CN(C)c1ccc(C(=C2C=CC(=[N+](C)C)C=C2)c2ccc(N(C)C)cc2)cc1; result = 23.7%
SMILES = CSc1nc2cc(Cl)c(Oc3cccc(Cl)c3Cl)cc2[nH]1; result = 16.9%
SMILES = O=[N+]([O-])c1cncn1CCN1CCOCC1; result = 88.8%
SMILES = CC(C)=CCC[C@](C)(O[C@@H]1O[C@H](CO[C@@H]2O[C@@H](CO)[C@H](O)[C@H]2O)[C@@H](O)[C@H](O)[C@H]1O)[C@H]1CC[C@]2(C)[C@@H]1[C@H](O)C[C@@H]1[C@@]3(C)CC[C@H](O[C@@H]4O[C@H](CO)[C@@H](O)[C@H](O)[C@H]4O[C@@H]4O[C@H](CO)[C@@H](O)[C@H](O)[C@H]4O)C(C)(C)[C@@H]3CC[C@]12C; result = 108%

Set 2 — organism: Sarcocystis neurona; effect on: parasite growth; tested at: 10 µM; time: 96 h; setting: second screen; baseline: untreated; measurement: log2 fold change
Compound = CC(=O)OCC(=O)[C@@]1(O)CC[C@H]2[C@@H]3CCC4=CC(=O)CC[C@]4(C)[C@H]3C(=O)C[C@@]21C; result = 0.0272
Compound = CCC(=O)OCC(=O)[C@@]1(OC(=O)CC)[C@@H](C)C[C@H]2[C@@H]3CCC4=CC(=O)C=C[C@]4(C)[C@@]3(Cl)[C@@H](O)C[C@@]21C; result = 0.38
Compound = CN1CCN(C2=Nc3cc(F)ccc3Cc3ccccc32)CC1; result = 0.29
Compound = CC[C@H]1OC(=O)[C@H](C)[C@@H](O[C@H]2C[C@@](C)(OC)[C@@H](O)[C@H](C)O2)[C@H](C)[C@@H](O[C@@H]2O[C@H](C)C[C@H](N(C)C)[C@H]2O)[C@](C)(O)C[C@@H](C)CN(C)[C@H](C)[C@@H](O)[C@]1(C)O; result = 0.08
Compound = O=S(=O)(O)CCS; result = 0.13
Compound = CCCc1nc(C(C)(C)O)c(C(=O)OCc2oc(=O)oc2C)n1Cc1ccc(-c2ccccc2-c2nnn[nH]2)cc1; result = -0.0181
Compound = O=C1CC2(CCCC2)CC(=O)N1CCCCN1CCN(c2ncccn2)CC1; result = 0.36
Compound = S=c1[nH]cnc2nc[nH]c12; result = 0.16

Set 3 — method: competition with immobilised ligand; tested at: 1 µM; measurement: remaining binding
SMILES: COc1ccc2c(c1)O[C@@H](c1ccc(OC)c(OC)c1)C[C@H]2NC(=O)C1(c2ccc3c(c2)OC(F)(F)O3)CC1
target = TLK1 (Homo sapiens, UniProt Q9UKI8); effect on = cell-free assay; result = 84%
target = Tyrosine-protein kinase ABL1, phosphorylated (ABL1, Homo sapiens, UniProt P00519, F317L); effect on = cell-free assay; result = 76%
target = CDK16 (Homo sapiens, UniProt Q00536); effect on = cell-free assay; result = 88%
target = STK32C (Homo sapiens, UniProt Q86UX6); effect on = cell-free assay; result = 100%
target = RIPK2 (Homo sapiens, UniProt O43353); effect on = cell-free assay; result = 94%
target = PIP4K2B (Homo sapiens, UniProt P78356); effect on = cell-free assay; result = 100%
target = MAP4K5 (Homo sapiens, UniProt Q9Y4K4); effect on = cell-free assay; result = 100%
target = TXK (Homo sapiens, UniProt P42681); effect on = binding; result = 97%
target = MAPK3 (Homo sapiens, UniProt P27361); effect on = cell-free assay; result = 89%
target = SBK3 (Homo sapiens, UniProt P0C264); effect on = cell-free assay; result = 100%
target = STK33 (Homo sapiens, UniProt Q9BYT3); effect on = cell-free assay; result = 68%

Set 4 — species: human; sample: microsomes or S9; tested at: 2 µM; time: 0.5 h; measurement: remaining compound
SMILES = Cc1c(C#N)c(NS(=O)(=O)CCCCF)n2ccccc12; result = 12.1%
SMILES = CC(C)[C@@H](Oc1ccc(NC(=O)C2CC=NN2C(=O)C[C@H](N)Cc2cc(F)c(F)cc2F)cc1)C(=O)O (stereo partly drawn); result = 80.6%
SMILES = Cc1ccc(S(=O)(=O)N2CCN(c3ncnc4c3nnn4Cc3ccccc3)CC2)cc1; result = > 100%
SMILES = CCn1c(C(=O)N(C)c2cc(C)ccc2OC)cc2c(=O)oc3ccccc3c21; result = 0.876%
SMILES = Nc1nc(N2CCN(c3ncccn3)CC2)c2nc[nH]c2n1; result = > 100%
SMILES = Cn1c(C(F)(F)F)nn(CCNS(=O)(=O)CCN2C(=O)CCCC2=O)c1=O; result = > 99%
SMILES = COC(=O)c1cc(Cl)ccc1C1CCN(CC(=O)N2CCc3ccccc32)CC1; result = 1.18%
SMILES = CCOCCCn1nnc2c(O)nc(C(=O)NCc3cccc(Cl)c3)nc21; result = 42.2%

For quick reference, copied from above (set 3):
target = TXK (Homo sapiens, UniProt P42681); effect on = binding; result = 97%
target = MAPK3 (Homo sapiens, UniProt P27361); effect on = cell-free assay; result = 89%
target = SBK3 (Homo sapiens, UniProt P0C264); effect on = cell-free assay; result = 100%
